Experimental data gathered from unrelated publications.
Each numbered part is a random draw from the data of one study; scales do not carry over between parts. Positions count from the first letter of the parent shown.

Study 1
Target: Sal-like protein 4, full length isoform B (SALL4, Homo sapiens, UniProt Q9UJQ4-2, residues 1-616)
Method: universal PBM
Form: double-stranded DNA, one strand shown
Sample: in vitro
Tested at: not given
Notes: 8-mer, flanks averaged, mean of replicates
Direction: higher = stronger binding
Construct (chain): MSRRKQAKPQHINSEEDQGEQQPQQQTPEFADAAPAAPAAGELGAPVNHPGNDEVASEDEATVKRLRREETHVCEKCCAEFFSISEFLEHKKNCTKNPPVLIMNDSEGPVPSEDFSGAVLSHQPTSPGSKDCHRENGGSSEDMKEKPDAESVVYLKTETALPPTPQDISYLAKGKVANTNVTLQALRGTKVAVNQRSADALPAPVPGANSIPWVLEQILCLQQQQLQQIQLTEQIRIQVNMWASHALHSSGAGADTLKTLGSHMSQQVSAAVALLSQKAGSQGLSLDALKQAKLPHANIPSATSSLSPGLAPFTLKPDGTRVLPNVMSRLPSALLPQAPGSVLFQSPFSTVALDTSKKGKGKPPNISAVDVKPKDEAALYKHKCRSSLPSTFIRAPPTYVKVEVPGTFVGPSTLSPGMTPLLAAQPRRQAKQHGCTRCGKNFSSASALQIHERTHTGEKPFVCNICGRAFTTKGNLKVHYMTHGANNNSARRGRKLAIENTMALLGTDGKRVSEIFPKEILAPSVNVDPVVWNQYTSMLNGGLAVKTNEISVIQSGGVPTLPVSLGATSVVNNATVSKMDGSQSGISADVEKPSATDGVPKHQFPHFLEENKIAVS
With `CTACGCAA` the E-score was 0.0208.
For `ACTTAGCG`, the E-score was -0.0139.
For `GGTTAGGA`, the E-score was -0.112.
`GCTTTAGA` gave an E-score of 0.145.
For `ACGGAGGG`, the E-score was -0.11.
For `CAAGCCAC`, the E-score was -0.286.
The E-score of `AAAGAGCG` is reported as -0.189.
With `ACAAATCT` the E-score was 0.215.
`AGCCGGCG` has an E-score of -0.319.
With `CCATCGAC` the E-score was -0.103.
`AGGAACCT` gave an E-score of 0.104.
With `CCAAGCCG` the E-score was -0.329.
`AAGGGTCG` has an E-score of -0.0336.
The E-score of `CGTAAGGC` is reported as -0.0728.
With `CCATGCGG` the E-score was -0.268.
`ACTATTCG` has an E-score of 0.203.
With `GTTCCACA` the E-score was -0.126.

Study 2
Target: RNA binding protein fox-1 homolog 2, RRM domain, GST-SBP tag (RBFOX2, Homo sapiens, UniProt O43251-10, residues 100-194)
Method: RNA Bind-n-Seq
Form: RNA
Sample: in vitro
Tested at: 365 nM
Notes: natural RNA segment, single round, ends assumed
Reference: no-protein control
Direction: higher = stronger binding
Construct (chain): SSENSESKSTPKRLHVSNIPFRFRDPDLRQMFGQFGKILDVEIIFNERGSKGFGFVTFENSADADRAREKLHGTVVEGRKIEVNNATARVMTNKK
For `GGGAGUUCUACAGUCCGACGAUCCUAUUUUGUUGUCAAUACAAUUUAAUAUCAAUCAGAGUAAUCCUUUGUACAUUGAGAGGAGGGGCUUGGUUUCACCAUCCCCGUCCUUUCCCCACGGAUCCACCAGGAUUUGGAAUUCUCGGGUGCCAA`, “RBNS enrichment (R)” read 0.213.
Under “RBNS enrichment (R)”, `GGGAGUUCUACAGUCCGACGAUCAGACGGUGGGAUGGGAGAAGAGAAGAGUGCGCUGUCCGAGGGCUGACCGAAUGGCUGGGUUUAGUAAAUAAAACACUAAGCAUGACGGGCUCCCGCCUCUUGCCGCUCUGUGGAAUUCUCGGGUGCCAA` is recorded as 1.04.
For `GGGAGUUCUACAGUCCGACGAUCACUUUUACUUUUUGCAUUGUCCAGACUUCUUUAUUAGAUGGAGAUGUUUCUUUUUCUGUCUUCUAGACUAAAUAGAGUAUCAUCCAAAUAAUGGGGCCUAUGACUUGAAUUGGAAUUCUCGGGUGCCAA`, “RBNS enrichment (R)” read 0.346.
Under “RBNS enrichment (R)”, `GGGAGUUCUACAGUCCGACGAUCAGAUGCCAGCAAGGAUGGAAGCAUCAGGCUCACAGGUGUGUGUGUGUGUGUGCACGCGUUCGCACAUGCGUGAGUGUGUAGCAGAAGUGUGUACAGAGAGGCCCGUGCUAUGGAAUUCUCGGGUGCCAA` is recorded as 0.45.
Under “RBNS enrichment (R)”, `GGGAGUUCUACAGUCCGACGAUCGUGAGGAUGCAUGCGUGGGGCUGCUGGUGUUUAGAGUGGGGGCUACCCAAUAAAUCACUGAUACUCACGUUCCACCUCUGUCUCUCCUCAGAGUGCCUUGAGACACUCUGUGGAAUUCUCGGGUGCCAA` is recorded as 12.4.
`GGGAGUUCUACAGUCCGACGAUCUGAGAAGCAGCUGAGUGAGGCAUGUUUUGACAGGAGGAACCCAGUUCUUUUCACUGUUGGUAUUUAUAGCACCUACCUUCAGAUUUUUCAGUAUGAUGUUUCUAUUUUCCUGGAAUUCUCGGGUGCCAA` — result for “RBNS enrichment (R)”: 0.348.
Under “RBNS enrichment (R)”, `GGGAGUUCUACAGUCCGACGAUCCUCCAGAGGGCCAGCCUCUGCUGAGCGGGGGAAGUGGGCACUGACUACAGCAGGUGGAGAUGGUGCAGGGCGGGGUGAUGAGGUUAUAAAACUAUGGAACCUCCUCUGGCUGGAAUUCUCGGGUGCCAA` is recorded as 0.532.
For `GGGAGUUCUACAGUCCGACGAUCAAAUUUCAUACUCUUUUGUCUUUGGAGAUUCCAUUGUGGACAGUAAUACGCAGUUACAGGGUGUAGUCUGUUUAGAUUCCGUAGUUCGUGGGUAUCAGUUUCGGUAGAGGUGGAAUUCUCGGGUGCCAA`, “RBNS enrichment (R)” read 0.414.
`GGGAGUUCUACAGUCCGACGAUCUCUUCUCACAUCCAUCUACUUUUUUAUCCACCUCCCUACCAAAAAUUGCCAAGUGCCUAUGCAAACCAGCUUUAGGUCCCAAUUCGGGGCCUGCUGGAGUUCCGGCCUGGUGGAAUUCUCGGGUGCCAA`: “RBNS enrichment (R)” 0.721.
For `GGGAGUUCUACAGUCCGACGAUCCUCUUCCCCACCUCUCUCAUCUAGACCAAAAAGAAGACUACAAUUUAGAUCCUUGGAGACUUUUCCUGUAUGCCUUCCAAAACUUCCUGCUCACUUAGAUGUACCUUGUGUGGAAUUCUCGGGUGCCAA`, “RBNS enrichment (R)” read 0.595.
`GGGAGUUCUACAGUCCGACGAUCGGACCCGCAGGGACCAGCUGACCAGGCUUGUGCUCAGAGAAGCAGACAAAACAAAGAUUCAAGGUUUUAAUUAAUUCCCAUACUGAUAAAAAUAACUCCAUGAAUUCUGUUGGAAUUCUCGGGUGCCAA`: “RBNS enrichment (R)” 0.434.
`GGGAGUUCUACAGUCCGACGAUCCUUAGUUGGUGCCCAUUCUGCACCAGUUGUUUUACCCCUGCCGAUAACCAGCAGUCAGAGAUUCUUUUUUAAUCCUUGGAGACAGGGAAAGGGACAGAUAGCUUUCCAAGUGGAAUUCUCGGGUGCCAA`: “RBNS enrichment (R)” 0.325.

Study 3
Target: CCNA1, cyclin fold, Cln2 fusion (human)
Method: yeast growth competition, sequencing
Sample: yeast
Notes: weak parent motif
Reference: not given
Direction: higher = stronger binding
Starting sequence: MICAL3 docking peptide (human); LQLRRQLSFSEDS
Under “normalised enrichment score”, `Q6Y` is recorded as 0.171.
For `D12K`, “normalised enrichment score” read 0.222.
`S10Y`: “normalised enrichment score” 0.681.
For `Q6L`, “normalised enrichment score” read 0.0872.
Under “normalised enrichment score”, `S8I` is recorded as 0.607.
`E11K`: “normalised enrichment score” 0.441.
Under “normalised enrichment score”, `L7D` is recorded as -0.224.
`S10K`: “normalised enrichment score” 0.209.
For `Q2W`, “normalised enrichment score” read -0.115.
Under “normalised enrichment score”, `E11V` is recorded as 0.136.
`Q2D` — result for “normalised enrichment score”: -0.0151.
`L3N`: “normalised enrichment score” 0.0902.
For `R5T`, “normalised enrichment score” read 0.356.
`L3G`: “normalised enrichment score” 0.749.
`S10F`: “normalised enrichment score” 0.517.
Under “normalised enrichment score”, `S8F` is recorded as 0.542.

Study 4
Target: Fragile X messenger ribonucleoprotein 1, C-terminal low-complexity region (Fmr1, Mus musculus, UniProt P35922)
Method: RNA Bind-n-Seq
Form: RNA
Sample: in vitro
Tested at: 200 nM
Notes: whole 134-nt RNA, ends assumed
Together with: 150 mM LiCl
Reference: input library
Direction: higher = stronger binding
All molecules: 7-deaza-guanosine replaces G
For `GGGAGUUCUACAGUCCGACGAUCUAACUUUAGAGGAGGAUCUGAUGGAUAUGGCAGUGGAAGUGGAUUUGGGGAUGGCUAUAAUGGGUAUGGAGGAGGACCUGGAGGUGGCAAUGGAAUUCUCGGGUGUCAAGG`, the log2 enrichment was 0.426.
For `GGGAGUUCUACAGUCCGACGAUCUCCUAGUAUUCUGGCCGUUCAGAGAUCUGCAAUCCUCAAGAAGCAGCAACAGCAGCAGCAGCAACAACAACAUCAAGCCUCAUCUAAUAGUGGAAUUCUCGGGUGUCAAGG`, the log2 enrichment was 1.38.
For `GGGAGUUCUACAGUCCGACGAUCCACAGACAACACGCACCCACACAGACACAGAGGGAAGGGGUUGGGAUGGGGACAGGGUGCACAAAAGGGCGGGGUAGGACCCCAGCCCCUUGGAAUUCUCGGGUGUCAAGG`, the log2 enrichment was -0.168.
The log2 enrichment of `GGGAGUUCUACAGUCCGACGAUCGUCCUGUGCUACACAUCGUAUGUACCGAAUCGGCCCCCGGGGCCCCCGGGGCCCCCGGGAAAGUAUUAUGUUACGCCGUUCGGAUCUGCAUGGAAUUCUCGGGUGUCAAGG` is reported as -2.86.
For `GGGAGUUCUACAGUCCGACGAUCCACAGACAACACGCACCCACACAGACACAGAGGGAAGGGGUUGGGAUGGGGACAGGGUGCACAGCAGGGAAAGGUAGGACCCCAGCCCCUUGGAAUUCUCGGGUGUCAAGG`, the log2 enrichment was 0.626.
The log2 enrichment of `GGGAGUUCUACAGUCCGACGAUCAAGUCCUGUGCUACACAUCGUAUGUACCGAAUCGGUUUUUUUGGUUUUUGGUUUGGAAAGUAUUAUGUUACGCCGUUCGGAUCUGCACUUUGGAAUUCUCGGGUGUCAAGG` is reported as -2.71.
`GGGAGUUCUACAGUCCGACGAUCUAACUUUAGACGAGGAUCUGAUGGAUAUGGCAGUGGACGUGGAUUUGGGGAUGGCUAUAAUGGGUAUGGAGGAGGACCUGGAGGUGGCAAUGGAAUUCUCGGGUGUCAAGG` gave a log2 enrichment of 0.0742.
`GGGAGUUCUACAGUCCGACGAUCUCCUGUGCUACACAUCGUAUGUACCGAAUCAAACCCAAACCCCCCCAAAUUUUUUUAAAAAAGUAUUAUGUUACGCCGUUCGGAUCUGCAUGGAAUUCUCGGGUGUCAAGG` gave a log2 enrichment of 1.46.
With `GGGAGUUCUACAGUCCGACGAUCUGCCUGGCCCAGUGCUGGGUUUGCCUUGUUGACGAUGCGCUUGGAUUGUUAAGGACACCGAUGUUCAGAACCCGGGAAGAGUCAUCUUAAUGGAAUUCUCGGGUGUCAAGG` the log2 enrichment was -3.55.
The log2 enrichment of `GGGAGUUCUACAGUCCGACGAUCGCCACCAUGCCCACCUAGUUUUUGCAUUUUUAGUGGAGGUGUGGUUUCACUGUGUUGGCCAGGCUGGUCUCUUAACUCCUGACCUCAGGUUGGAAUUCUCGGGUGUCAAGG` is reported as 0.441.
`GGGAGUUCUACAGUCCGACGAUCUGGCCCUGGUGGCAUGCGGGGAGGAAGAGGUGGCCUCAUGGAUCGUGGUGGUCCCGGUGGAAUGUUCAGAGGUGGCCGGGGUGGAGACAGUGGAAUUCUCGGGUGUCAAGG` gave a log2 enrichment of -0.886.

Some of these lines once more (study 1):
With `CTACGCAA` the E-score was 0.0208.
With `CCAAGCCG` the E-score was -0.329.
With `ACAAATCT` the E-score was 0.215.
With `GTTCCACA` the E-score was -0.126.
`AAGGGTCG` has an E-score of -0.0336.
`AGCCGGCG` has an E-score of -0.319.
`ACTATTCG` has an E-score of 0.203.
With `CCATCGAC` the E-score was -0.103.
The E-score of `AAAGAGCG` is reported as -0.189.
